Results collected from several papers.
Each numbered part is a random draw from the data of one study; scales do not carry over between parts.

Sample 1
Target: RNA binding protein fox-1 homolog 2, RRM domain, GST-SBP tag (RBFOX2, Homo sapiens, UniProt O43251-10, residues 100-194)
Technique: RNA Bind-n-Seq
Molecule type: RNA
Sample: in vitro
Concentration: 365 nM
Setting: natural RNA segment, single round, ends assumed
Reference: no-protein control
Direction: higher = stronger binding
Measurement: RBNS enrichment (R)
Residues (chain): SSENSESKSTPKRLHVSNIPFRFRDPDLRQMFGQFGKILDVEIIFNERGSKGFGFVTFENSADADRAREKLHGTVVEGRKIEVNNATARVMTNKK
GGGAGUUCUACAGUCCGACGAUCGCUAUGCAUGCUGUUGGGACUCGUAUUACAGGGAAUGGCAUUGAGAAGCCAAGUGGGACUCACUGCUGCCAUUCUCCUUGUGCUUGGUCUUCACUAGACCCCAGCCCCCUUGGAAUUCUCGGGUGCCAA: 3.25
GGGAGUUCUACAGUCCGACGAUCCUUCCACAUUGCAUGUUCACUUUAGUAUUUGCAAUUUGAUAUAUUUCAUGGUGGCAAAAUAUUAGCUCUGUUUUGGGACAUUUUAAAAUAGAACUAUCCUUGUUCGAUAGUGGAAUUCUCGGGUGCCAA: 4.04
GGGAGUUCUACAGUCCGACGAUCGAUAAUAGACUUGGAGUGCCGCUGAGGCUGAGAUCUGUGGCCAUUUACAUAGCACAUCAUUCCUCCUAUAGGGAUGAACUUUUUUUCCGACACAAAAAGUAGCCACUGCGUGGAAUUCUCGGGUGCCAA: 0.397
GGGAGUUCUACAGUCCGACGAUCUCGCCUCCUGGGUUCAAGCGAUUCUCCUGCCUCCGCCUCCUGAGUAGCUGGGAUUAUAGGCACGCACCACCACGCCCAGCUAAUUUUUUGUAUUUUUAGUAGAGACAGAGUGGAAUUCUCGGGUGCCAA: 0.481
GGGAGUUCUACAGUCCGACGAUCUAAGGCUGCACGCCUCCAAUCCCCCAAAGGGUAGGAUCCUGGCUGGGUCCAGGGUUCCUCUGAUUUAUUUGGUUUUGUUGUGUUGUGUUGUGUUUUUCUUUUGGCUAAACUGGAAUUCUCGGGUGCCAA: 0.415
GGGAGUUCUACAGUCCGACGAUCCUCAUGUAACGGUGGUACAUAAUAUCAAAUCAAAAGUUAUCUGUGACUAUAUAUAGGGAUCACAAAGUGUCACAUGUUAGAAUGCUGACCUUCCACAUGGGGUUAUUGUGUGGAAUUCUCGGGUGCCAA: 0.362
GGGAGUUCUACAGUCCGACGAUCUGGGAGACUCACCCCACACGCCCUCCCCAGGGCACGUGCUGGUGUUUCCUCACGCUGGUUUCUCUGGUUUGGGGCUCCACGGCCAAGUCCUUGUUGGCUGAGGGCAGGACUGGAAUUCUCGGGUGCCAA: 0.248
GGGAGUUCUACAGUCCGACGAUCACCAGGAGAACCACUACAUGCAACUCACGCCCCUUGCCCUAUCACAGGGUUGGGCCUAGACGGAGUCCCCUGCAAUUAGCUUUCUAGGAUCUACCACACUUCUGUGAAAGUGGAAUUCUCGGGUGCCAA: 0.282
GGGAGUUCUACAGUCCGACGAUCACGGUCCUCUCAAGUGUCUAUUAGAUAGGCAAUAAGAACUGCAGUGUAGCUGAGUAACAUCUUUUAGCUGACUAUAAAUCACUUUGUUUUUAAACAAGAAAAGCUGUGCUUGGAAUUCUCGGGUGCCAA: 0.315

Sample 2
Target: PABPC1L2, full length, GST fusion (mouse, UniProt A0ABA7IW68)
Technique: RNAcompete
Molecule type: RNA
Sample: in vitro
Concentration: 20 nM
Setting: 7-mer, probes averaged, single round
Reference: mean of 7-mers
Direction: higher = stronger binding
Measurement: 7-mer Z-score
Construct (chain): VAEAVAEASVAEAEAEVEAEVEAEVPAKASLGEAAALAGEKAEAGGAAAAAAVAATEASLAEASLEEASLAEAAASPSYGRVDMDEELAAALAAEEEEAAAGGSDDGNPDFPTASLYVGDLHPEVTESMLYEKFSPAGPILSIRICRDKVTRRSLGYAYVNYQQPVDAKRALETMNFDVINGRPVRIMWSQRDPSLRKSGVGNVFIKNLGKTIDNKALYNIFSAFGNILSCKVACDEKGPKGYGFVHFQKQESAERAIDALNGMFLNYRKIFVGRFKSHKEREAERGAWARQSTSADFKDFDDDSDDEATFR
GUGGCCG: -0.0609
UUUGAGA: 0.00979
UACACGU: -0.235
UGUGCGC: -0.103
UAAUUAU: -0.166
GUUUUAA: -0.219
GUUUCCG: -0.443
ACGUACU: -0.237
UCAUCCA: -0.296
GUGGCGA: -0.012
AAUCUUC: -0.235
UGAUUAC: -0.186
CUACCAC: -0.103
UAUCCAG: -0.293
CUGCUAA: -0.0391
CGACGAU: 0.0859
GAGUGUC: -0.242
ACACGCA: -0.0482
CCGGGAA: 0.0116
UGAUGGU: -0.117
UUGGUGA: -0.0391

Sample 3
Target: RING finger protein unkempt homolog, zinc fingers 1-6, GST-SBP tag (UNK, Homo sapiens, UniProt Q9C0B0, residues 30-357)
Chain of UniProt Q9C0B0 (30-357, looked up): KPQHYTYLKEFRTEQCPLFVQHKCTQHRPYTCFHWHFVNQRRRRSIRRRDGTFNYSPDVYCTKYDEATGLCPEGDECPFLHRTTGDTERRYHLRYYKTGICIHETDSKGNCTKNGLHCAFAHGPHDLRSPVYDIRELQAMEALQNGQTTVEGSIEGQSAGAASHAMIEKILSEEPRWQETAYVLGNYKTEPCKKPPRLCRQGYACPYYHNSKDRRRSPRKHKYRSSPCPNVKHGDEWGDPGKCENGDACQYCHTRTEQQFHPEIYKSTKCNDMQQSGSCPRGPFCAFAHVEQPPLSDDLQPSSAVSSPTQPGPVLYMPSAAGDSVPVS
Technique: RNA Bind-n-Seq
Molecule type: RNA
Sample: in vitro
Concentration: not given
Setting: RNA with constant flanks, human and mouse sites, ends assumed
Reference: input RNA pool
Direction: higher = stronger binding
Measurement: bound/input enrichment
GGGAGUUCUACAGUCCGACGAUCCAGUGACUGUUCACAUGCCCAAAGUUGUGCUGAAUAUGAACCUGACACCAACGCAAGGCAGCUAUACAUUUGAUCCCGUGACCAAGGUACUAGCAUGGGAUGUGGGCAAAAUUACUCCACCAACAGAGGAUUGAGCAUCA: 0.1 ratio
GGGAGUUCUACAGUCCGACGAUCGAGUGAAGGACUGUAAUCAUAAUAUGCUCACUACUUGCUCUUGUUUUUGUUUUAAUAAACUAUAGUAGUGUUUUAAAAAGUUAAAUGAAGAAUAAACGCAAAUAUAAAAGCUCUGAUUUUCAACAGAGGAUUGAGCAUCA: 0.305 ratio
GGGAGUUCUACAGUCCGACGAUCGAAAGCACUACCCUAAGCCAUGAGGAUCUCCAUGCUUUGCUAACCAAGAUAACUGUUUUCUCUUUGUAGAAGUUUUGUUUUUGAAAUGUGUAUUUCUAAUUAUAUAAAAUAUUAAGAAUCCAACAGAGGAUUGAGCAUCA: 2.18 ratio
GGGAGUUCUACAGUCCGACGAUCUAUCCAAAUCUAAACAUGAUUGAGACAUUUAUUUGUCAAGUGUGUGAGGAGACACUUUCACAUAGCGUGAAUUCCCCUGAACAGCUAACUGGAAUGAGGAUGCUUAGACAUCUCACUAUACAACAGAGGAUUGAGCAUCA: 0.176 ratio
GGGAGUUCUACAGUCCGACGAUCUGUGUGAGUGUGUGCGCGAGUGUGCGCGCGCGCGUGUGAGAGAGAAAGGGCGAGAGAGAGGGGGACUCUUGUGUGAGGGAAAGAAAACAAUUUCUCCUGCUCUGCAGCUUCUGUUCAGCUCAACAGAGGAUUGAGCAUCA: 0.117 ratio
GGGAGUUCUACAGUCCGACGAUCCAUAAUUAUGGUGCUCGUCCUCCUCCGACACCUCCGGCUUCCCCUCCUCCAUCAGUCCUUAUUAGCAAAAAUGAAGUAGGCAUAUUUACCACUCCUAAUUUUGAUGAAACUUCCAGUGCUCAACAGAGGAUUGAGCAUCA: 2.31 ratio
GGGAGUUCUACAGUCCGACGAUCGGGAACUCCACUCGGGGAACUCCUUUCCAAGCUGACCUCAGUUUUCUCACAAGAACCCAGUUAGCUGAUGUUUUAUUGUAAUUGUCUUAAUUUGCUAAGAACAAGUAAUAAGUAAAUUUUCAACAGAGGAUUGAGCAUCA: 0.94 ratio
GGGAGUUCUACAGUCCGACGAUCGGCUGUUUCUCCACAUUUUGAUGACAUGCACAGUAAUACAGCAUCCACAAUCAAUUUCAUUAUCUCCCAAGUAGCCAGUGGUGACAUCAACACAAGCAUCCAAGCUCUGACACAGAUUGACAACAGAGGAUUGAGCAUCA: 0.504 ratio

Sample 4
Target: Hepatocyte nuclear factor 3-alpha (Foxa1, Mus musculus, UniProt P35582, residues 1-468, full length assumed)
Technique: EMSA with sequencing
Molecule type: double-stranded DNA, one strand shown
Sample: in vitro
Concentration: 10 and 20 nM
Setting: whole designed probe, mean of two concentrations, ends assumed
Reference: negative control set to 0
Direction: higher = stronger binding
Measurement: normalised bound fraction
Residues (chain): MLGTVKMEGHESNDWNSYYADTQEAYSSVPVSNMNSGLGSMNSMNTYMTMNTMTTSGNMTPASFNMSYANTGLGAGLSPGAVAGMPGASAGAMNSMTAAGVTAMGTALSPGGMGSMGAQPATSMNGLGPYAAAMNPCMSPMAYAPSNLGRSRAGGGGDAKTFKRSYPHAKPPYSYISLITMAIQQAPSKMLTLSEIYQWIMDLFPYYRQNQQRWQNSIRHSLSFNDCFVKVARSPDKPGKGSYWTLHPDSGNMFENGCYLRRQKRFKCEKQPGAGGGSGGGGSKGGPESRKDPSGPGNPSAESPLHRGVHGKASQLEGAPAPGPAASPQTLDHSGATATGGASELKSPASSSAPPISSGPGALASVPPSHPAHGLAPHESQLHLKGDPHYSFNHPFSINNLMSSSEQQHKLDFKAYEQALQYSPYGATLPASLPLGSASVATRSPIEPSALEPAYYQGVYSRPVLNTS
GTGAGCGGTGCCCATTGATGGGGAACCACCAAACTTGACCTGCTCTCCACCCTCGGATCTAGTCAGGCTAGACAACACTGCTGTCAACAAATTTTAGGATCTCTGTGGCTGAACCTGGAAGATTACTTTTCATGCACACAGAGGCTACTGTGGATCTAGAGCCTCTCCATGGAAGCTCCCTGCAGATGGGTGGCTCCAGTCTCCAAGGGCTTCCATCTTTTTCACTGGGATCGTGGGGAC: -0.0245 ratio
GTGAGCGGTGCCCATTGATGGGGAACATCTTCCCCCTCTTCCTTGCCCCACCAGCTCACCTTCCCGGGTTATTTGCAGATAGGAAAATAAATAAAGCCGGCATTCGTTAACCCTCTTCTTAGTTGGCGCTGTCATCGCACTGGATGAATCATGGTCCTTTGGCGACGCCAGGCTCCGGGAGAGCAAAGCACCGTGTCAGGGCCATGATCCGGGGTGGCCTTTCACTGGGATCGTGGGGAC: 0.344 ratio
GTGAGCGGTGCCCATTGATGGGGAACAGCAGAACTAATTTATCAATTCCTTAAATACATATTAATGCATACCAAGGGCAGACACTCTGACTTAATAGGAGGATATTGAGAATAAATATAAGTAATCTAGAAATTTTATAATATGTTAGAAGATAGTAAATGCTGTAAAAAATATTTAGAGTGAGGAAAAGGAGTTCAAGACAGCAGAAAAAAAAGTGAATTTCACTGGGATCGTGGGGAC: 0.145 ratio
GTGAGCGGTGCCCATTGATGGGGAACGGATTTTTGTTTTATCTGATTACAAAATAATACATGTTCATTAAAACACTTTAGAAGTCCCATCATGCAAGATTACTACTAAAAACCAAGATATATTTACTTTTATTTAAATATGTACAGTGTTTTACAAAATTGGGATGAATCATGATGTGCATGTATAATTTTGAATCCTCCTTTGGTCACTTAATGTCAGTTTCACTGGGATCGTGGGGAC: 0.299 ratio

Excerpt of the above (sample 3):
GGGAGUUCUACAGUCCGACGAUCGGCUGUUUCUCCACAUUUUGAUGACAUGCACAGUAAUACAGCAUCCACAAUCAAUUUCAUUAUCUCCCAAGUAGCCAGUGGUGACAUCAACACAAGCAUCCAAGCUCUGACACAGAUUGACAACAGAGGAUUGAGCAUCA: 0.504 ratio
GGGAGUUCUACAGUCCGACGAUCGGGAACUCCACUCGGGGAACUCCUUUCCAAGCUGACCUCAGUUUUCUCACAAGAACCCAGUUAGCUGAUGUUUUAUUGUAAUUGUCUUAAUUUGCUAAGAACAAGUAAUAAGUAAAUUUUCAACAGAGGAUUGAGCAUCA: 0.94 ratio
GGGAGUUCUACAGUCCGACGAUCCAUAAUUAUGGUGCUCGUCCUCCUCCGACACCUCCGGCUUCCCCUCCUCCAUCAGUCCUUAUUAGCAAAAAUGAAGUAGGCAUAUUUACCACUCCUAAUUUUGAUGAAACUUCCAGUGCUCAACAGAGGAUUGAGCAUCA: 2.31 ratio
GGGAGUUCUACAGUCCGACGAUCGAGUGAAGGACUGUAAUCAUAAUAUGCUCACUACUUGCUCUUGUUUUUGUUUUAAUAAACUAUAGUAGUGUUUUAAAAAGUUAAAUGAAGAAUAAACGCAAAUAUAAAAGCUCUGAUUUUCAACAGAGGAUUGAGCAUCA: 0.305 ratio
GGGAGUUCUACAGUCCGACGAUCUGUGUGAGUGUGUGCGCGAGUGUGCGCGCGCGCGUGUGAGAGAGAAAGGGCGAGAGAGAGGGGGACUCUUGUGUGAGGGAAAGAAAACAAUUUCUCCUGCUCUGCAGCUUCUGUUCAGCUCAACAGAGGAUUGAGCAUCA: 0.117 ratio
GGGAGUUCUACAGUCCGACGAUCGAAAGCACUACCCUAAGCCAUGAGGAUCUCCAUGCUUUGCUAACCAAGAUAACUGUUUUCUCUUUGUAGAAGUUUUGUUUUUGAAAUGUGUAUUUCUAAUUAUAUAAAAUAUUAAGAAUCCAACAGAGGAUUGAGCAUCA: 2.18 ratio
